Results from different studies.
Compare with care: the assays were run in different laboratories. Numbers after ± are the reported error. Values after ≈ are worked out from the molar mass of the structure shown.

Structure (SMILES) | target or system | assay | test system | conditions | how to read | quantity | value
CCN(Cc1ccccc1)C(=O)CCc1nc(CN2CCN(C(=O)Cc3ccc(OC)c(OC)c3)CC2)no1 |  | mechanical withdrawal threshold, von Frey | mouse CCI model | 1 mg/kg, dosing from day 11 |  | onset day | 15 days
CCCCCc1cc(OC(=O)C(NC(=O)CCC(=O)O)C(C)C)c2c(c1)OC(C)(C)C1CCC(C)=CC21 (stereo not shown) |  |  | rabbit, α-chymotrypsin-induced glaucoma | concentration not given, 1 h | baseline: baseline | intraocular pressure | 64%
CCCCCCCCCC(=O)NCC(=O)N[C@@H](CC(C)C)C(=O)N[C@@H](CC(C)C)C(=O)N[C@@H](CCCCN)C(=O)N[C@@H](CCCNC(=N)N)C(=O)N[C@H](C(=O)N[C@@H](CCCCN)C(=O)N[C@H](C(=O)N[C@@H](CC(C)C)C(=O)N[C@@H](CC(C)C)C(N)=O)[C@@H](C)O)[C@@H](C)CC | Klebsiella pneumoniae | checkerboard | ATCC 700603 | with: polymyxin B |  | FIC index | 0.312
N=C(N)N1CC23C4C5CC5C5C4C4C2C2CC2C4C53C1 (stereo not shown) | Influenza A virus | viral replication | MDCK, H3N2 A/HK/7/87 |  |  | EC50 | > 100 µM
O=C(O)CC[C@H](NC(=O)N[C@@H](CCCCNC(=O)[C@H](Cc1ccc2ccccc2c1)NC(=O)[C@H]1CC[C@H](CNC(=O)CNC(=O)CNC(=O)CNC(=O)CN2CCN(CC(=O)O)CCN(C(CCC(=O)NCCC[P+](c3ccccc3)(c3ccccc3)c3ccccc3)C(=O)O)CCN(CC(=O)O)CC2)CC1)C(=O)O)C(=O)O (stereo partly shown) [terbium-161 labelled] | PC-3 PIP (PSMA+) |  |  | concentration not given |  | surface-bound activity | 40%
C[C@@](O)(C(F)F)[C@H](NC(=O)c1ccc(C#CC#CC2CC2)cc1)C(=O)NO | Burkholderia cepacia | agar dilution | clinical isolates |  |  | MIC90 | 0.25 µg/mL (≈ 0.664 µM)
CC/C=C\C/C=C\C/C=C\C/C=C\C/C=C\C/C=C\CCC(=O)Nc1ccn(C2OC(CO)C(O)C2(F)F)c(=O)n1 (stereo not shown) | BT-549 |  |  |  |  | CC50 | 44.2 µM
O=C1CC(=O)N(c2ccccc2)c2cc(Cl)ccc2N1 |  | Hargreaves test | wild-type mouse, CCI neuropathy | oral, 3, 10 or 30 mg/kg, 7 to 14 days after CCI |  | heat hyperalgesia | decreased
Cc1cccc(-c2nc(Nc3ccncn3)c3c(C)csc3n2)n1 | Haemophilus influenzae | broth microdilution | H128 AcrA- |  |  | MIC | 0.25 µM (≈ 0.0836 µg/mL)
CCC1(CC)C2CC3CC(C2)CC1(N(C)C)C3 | Influenza A virus | viral replication | MDCK, A/FM/1/47 (H1N1) |  |  | EC50 | 43 ± 12 µM
CCCCCCCCC(=O)NCc1ccc(O)c(OC)c1 | mouse mAb 1-F12 | antibody binding, indirect competitive ELISA |  |  |  | IC50 | 0.252 µg/mL (≈ 0.857 µM)
CNCC12C3CCC4C3C3C(CCC31)C42 | Influenza A virus | viral replication | MDCK, H3N2 A/HK/7/87 |  |  | EC50 | > 100 µM
CC[C@H](C)[C@H](NC(=O)[C@@H](NC(=O)[C@H](CC(=O)O)NC(C)=O)[C@@H](C)O)C(=O)N[C@@H](CCCNC(=N)N)C(=O)N[C@@H](CC(C)C)C(=O)N[C@@H](CC(C)C)C(=O)N[C@@H](Cc1ccccc1)C(=O)N[C@@H](CCC(N)=O)C(=O)N[C@@H](CC(C)C)C(=O)N[C@@H](CCSC)C(=O)N[C@@H](CCCNC(=N)N)C(=O)N1CCC[C@H]1C(=O)N1CCC[C@H]1C(=O)N[C@@H](CC(N)=O)C(=O)N[C@@H](CCSC)C(=O)N[C@H](C(=O)N1CCC[C@H]1C(=O)N[C@@H](C)C(=O)N[C@H](C(=O)N[C@@H](CC(N)=O)C(=O)N[C@@H](C)C(N)=O)C(C)C)[C@@H](C)O |  | item: HA-41 tetramer | tetramer+ CD4 T cells, PBMC, healthy adults, HLA-DRB1*0101 | dose not given, CD62L−CD45RA+/− or CD62L+CD45RA− |  | antigen-experienced T cells | 67.3%

For quick reference, copied from above:
Structure (SMILES) | target or system | assay | test system | conditions | how to read | quantity | value
Cc1cccc(-c2nc(Nc3ccncn3)c3c(C)csc3n2)n1 | Haemophilus influenzae | broth microdilution | H128 AcrA- |  |  | MIC | 0.25 µM (≈ 0.0836 µg/mL)
